# Measured values collected from several papers.
# Compare with care: the assays were run in different laboratories. ± marks the error that the study gave.
# PLA2G4A: Cytosolic phospholipase A2 (PLA2G4A, Homo sapiens, UniProt P47712)
# Chain of UniProt P47712 (whole entry, looked up): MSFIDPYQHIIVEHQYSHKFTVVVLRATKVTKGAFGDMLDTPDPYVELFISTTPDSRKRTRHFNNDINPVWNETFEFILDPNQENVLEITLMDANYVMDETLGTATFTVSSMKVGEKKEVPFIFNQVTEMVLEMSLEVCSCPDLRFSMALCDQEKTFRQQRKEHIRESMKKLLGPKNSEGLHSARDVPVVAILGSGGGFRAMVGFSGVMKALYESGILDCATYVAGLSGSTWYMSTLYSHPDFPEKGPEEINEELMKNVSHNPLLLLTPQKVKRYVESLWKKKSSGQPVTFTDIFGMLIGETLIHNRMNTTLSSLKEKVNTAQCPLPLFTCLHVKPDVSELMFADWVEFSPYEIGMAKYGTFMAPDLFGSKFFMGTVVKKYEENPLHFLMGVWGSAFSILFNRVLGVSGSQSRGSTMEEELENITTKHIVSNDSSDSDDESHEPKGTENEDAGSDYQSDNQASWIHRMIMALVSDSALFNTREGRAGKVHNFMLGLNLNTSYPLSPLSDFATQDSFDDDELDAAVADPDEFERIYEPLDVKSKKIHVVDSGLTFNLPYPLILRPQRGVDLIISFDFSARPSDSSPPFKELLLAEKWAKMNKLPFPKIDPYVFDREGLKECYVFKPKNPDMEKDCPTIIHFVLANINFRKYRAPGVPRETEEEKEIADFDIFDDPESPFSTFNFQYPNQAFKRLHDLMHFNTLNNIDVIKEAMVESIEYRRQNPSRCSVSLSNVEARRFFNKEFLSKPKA
# Ugcg: Ceramide glucosyltransferase (Ugcg, Mus musculus, UniProt O88693)
# Chain of UniProt O88693 (whole entry, looked up): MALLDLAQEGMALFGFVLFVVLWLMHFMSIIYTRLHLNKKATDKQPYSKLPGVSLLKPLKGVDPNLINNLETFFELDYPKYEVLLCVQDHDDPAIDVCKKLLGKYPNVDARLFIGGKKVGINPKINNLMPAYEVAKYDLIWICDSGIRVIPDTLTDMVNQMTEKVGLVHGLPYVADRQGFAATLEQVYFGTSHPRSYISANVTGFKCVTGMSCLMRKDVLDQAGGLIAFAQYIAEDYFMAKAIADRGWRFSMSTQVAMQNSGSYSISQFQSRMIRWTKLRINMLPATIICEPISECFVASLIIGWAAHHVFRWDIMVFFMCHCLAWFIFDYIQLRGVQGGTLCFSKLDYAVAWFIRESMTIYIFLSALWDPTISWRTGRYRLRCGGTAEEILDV
# RAD52: DNA repair protein RAD52 homolog (RAD52, Homo sapiens, UniProt P43351)
# Chain of UniProt P43351 (whole entry, looked up): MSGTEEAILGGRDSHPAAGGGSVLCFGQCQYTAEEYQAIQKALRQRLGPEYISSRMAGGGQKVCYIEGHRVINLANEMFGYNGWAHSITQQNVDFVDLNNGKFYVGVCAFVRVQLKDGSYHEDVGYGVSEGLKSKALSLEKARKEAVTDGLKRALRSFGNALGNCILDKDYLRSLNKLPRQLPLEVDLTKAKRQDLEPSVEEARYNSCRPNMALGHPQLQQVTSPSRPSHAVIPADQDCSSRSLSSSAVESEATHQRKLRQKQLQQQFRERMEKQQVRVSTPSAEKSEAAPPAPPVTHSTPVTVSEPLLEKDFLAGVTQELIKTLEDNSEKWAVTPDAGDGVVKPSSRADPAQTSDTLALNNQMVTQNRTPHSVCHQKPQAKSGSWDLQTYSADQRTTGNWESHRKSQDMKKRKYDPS
# DRD3: D(3) dopamine receptor (DRD3, Homo sapiens, UniProt P35462)
# Chain of UniProt P35462 (whole entry, looked up): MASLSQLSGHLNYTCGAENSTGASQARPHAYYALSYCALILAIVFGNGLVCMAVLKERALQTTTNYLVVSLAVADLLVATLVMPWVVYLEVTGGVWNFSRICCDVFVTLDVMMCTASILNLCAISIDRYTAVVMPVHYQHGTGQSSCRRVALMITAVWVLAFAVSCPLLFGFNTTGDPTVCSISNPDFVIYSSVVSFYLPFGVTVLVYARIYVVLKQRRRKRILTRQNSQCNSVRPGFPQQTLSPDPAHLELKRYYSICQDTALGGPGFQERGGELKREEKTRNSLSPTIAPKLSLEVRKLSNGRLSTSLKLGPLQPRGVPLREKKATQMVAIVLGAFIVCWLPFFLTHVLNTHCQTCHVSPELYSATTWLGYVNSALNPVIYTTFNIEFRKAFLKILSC
# AR: Androgen receptor (AR, Homo sapiens, UniProt P10275)
# Chain of UniProt P10275 (whole entry, looked up): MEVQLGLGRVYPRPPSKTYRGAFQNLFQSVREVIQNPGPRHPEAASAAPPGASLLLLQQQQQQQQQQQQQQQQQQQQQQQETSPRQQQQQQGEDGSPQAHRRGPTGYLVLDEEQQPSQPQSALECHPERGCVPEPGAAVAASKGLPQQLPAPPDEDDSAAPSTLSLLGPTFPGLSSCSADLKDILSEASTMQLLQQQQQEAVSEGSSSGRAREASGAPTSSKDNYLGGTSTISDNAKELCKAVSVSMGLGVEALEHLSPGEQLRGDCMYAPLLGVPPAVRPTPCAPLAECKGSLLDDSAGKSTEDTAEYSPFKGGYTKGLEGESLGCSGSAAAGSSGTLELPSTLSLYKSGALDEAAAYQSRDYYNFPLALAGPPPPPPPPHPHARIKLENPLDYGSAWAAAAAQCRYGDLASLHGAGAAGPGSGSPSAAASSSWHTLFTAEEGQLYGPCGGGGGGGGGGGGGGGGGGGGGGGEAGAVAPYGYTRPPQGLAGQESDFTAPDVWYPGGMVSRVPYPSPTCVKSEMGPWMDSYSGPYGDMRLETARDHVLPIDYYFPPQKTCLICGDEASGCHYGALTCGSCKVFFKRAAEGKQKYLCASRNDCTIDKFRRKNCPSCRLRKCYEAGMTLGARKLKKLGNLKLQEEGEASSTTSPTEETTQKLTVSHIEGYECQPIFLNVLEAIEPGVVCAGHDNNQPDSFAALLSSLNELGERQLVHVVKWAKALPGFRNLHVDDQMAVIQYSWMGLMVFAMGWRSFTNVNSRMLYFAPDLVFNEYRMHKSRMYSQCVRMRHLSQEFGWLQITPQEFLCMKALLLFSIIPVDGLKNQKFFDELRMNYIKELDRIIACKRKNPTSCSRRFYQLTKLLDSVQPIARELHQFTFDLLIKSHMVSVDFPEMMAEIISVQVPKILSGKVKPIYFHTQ
# APLNR: Apelin receptor (APLNR, Homo sapiens, UniProt P35414)
# Chain of UniProt P35414 (whole entry, looked up): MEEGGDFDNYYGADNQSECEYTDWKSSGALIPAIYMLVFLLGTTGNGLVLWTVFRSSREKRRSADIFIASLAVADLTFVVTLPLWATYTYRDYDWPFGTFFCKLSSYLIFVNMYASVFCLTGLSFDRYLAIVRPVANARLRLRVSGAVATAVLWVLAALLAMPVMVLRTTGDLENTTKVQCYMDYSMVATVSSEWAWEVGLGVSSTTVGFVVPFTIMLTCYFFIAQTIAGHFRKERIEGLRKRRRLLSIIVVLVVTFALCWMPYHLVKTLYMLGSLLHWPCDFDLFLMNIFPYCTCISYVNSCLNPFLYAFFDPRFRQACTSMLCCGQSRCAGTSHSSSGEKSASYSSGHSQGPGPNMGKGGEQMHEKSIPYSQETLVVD
# Chain of UniProt P04629 (whole entry, looked up): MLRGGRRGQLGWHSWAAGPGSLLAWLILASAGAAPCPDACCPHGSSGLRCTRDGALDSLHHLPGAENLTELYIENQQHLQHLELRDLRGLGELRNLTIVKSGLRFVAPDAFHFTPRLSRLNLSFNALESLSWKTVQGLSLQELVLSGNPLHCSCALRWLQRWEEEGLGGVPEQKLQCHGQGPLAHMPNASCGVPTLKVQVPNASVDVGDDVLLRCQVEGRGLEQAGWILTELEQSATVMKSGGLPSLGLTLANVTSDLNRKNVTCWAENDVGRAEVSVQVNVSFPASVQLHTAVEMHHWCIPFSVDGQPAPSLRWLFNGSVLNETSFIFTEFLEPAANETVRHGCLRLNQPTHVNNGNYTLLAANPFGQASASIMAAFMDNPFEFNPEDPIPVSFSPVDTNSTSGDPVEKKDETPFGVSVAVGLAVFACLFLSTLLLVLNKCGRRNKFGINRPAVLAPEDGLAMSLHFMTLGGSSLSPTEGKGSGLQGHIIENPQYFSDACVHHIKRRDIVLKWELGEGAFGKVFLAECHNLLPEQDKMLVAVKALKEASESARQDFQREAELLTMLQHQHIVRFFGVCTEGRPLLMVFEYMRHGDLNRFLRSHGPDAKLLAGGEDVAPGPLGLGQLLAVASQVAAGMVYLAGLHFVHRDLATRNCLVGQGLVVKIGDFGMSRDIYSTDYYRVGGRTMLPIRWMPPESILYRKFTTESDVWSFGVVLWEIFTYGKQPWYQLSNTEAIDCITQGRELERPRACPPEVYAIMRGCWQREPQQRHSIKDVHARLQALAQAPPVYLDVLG
# Chain of UniProt O96017 (whole entry, looked up): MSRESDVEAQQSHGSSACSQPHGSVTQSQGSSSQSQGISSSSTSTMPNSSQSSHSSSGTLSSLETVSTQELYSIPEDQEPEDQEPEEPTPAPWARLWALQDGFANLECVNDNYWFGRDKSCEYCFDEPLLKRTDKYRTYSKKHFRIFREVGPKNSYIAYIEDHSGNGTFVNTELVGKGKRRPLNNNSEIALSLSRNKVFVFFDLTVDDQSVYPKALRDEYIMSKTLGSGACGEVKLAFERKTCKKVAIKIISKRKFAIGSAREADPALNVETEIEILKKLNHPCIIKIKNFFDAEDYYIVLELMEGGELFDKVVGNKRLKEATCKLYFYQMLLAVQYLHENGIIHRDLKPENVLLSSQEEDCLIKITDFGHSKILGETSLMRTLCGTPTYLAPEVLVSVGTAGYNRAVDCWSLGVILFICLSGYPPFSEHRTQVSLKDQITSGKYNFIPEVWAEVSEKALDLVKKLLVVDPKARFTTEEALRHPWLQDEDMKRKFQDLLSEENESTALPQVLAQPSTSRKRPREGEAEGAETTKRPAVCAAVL
# Chain of UniProt O14965 (whole entry, looked up): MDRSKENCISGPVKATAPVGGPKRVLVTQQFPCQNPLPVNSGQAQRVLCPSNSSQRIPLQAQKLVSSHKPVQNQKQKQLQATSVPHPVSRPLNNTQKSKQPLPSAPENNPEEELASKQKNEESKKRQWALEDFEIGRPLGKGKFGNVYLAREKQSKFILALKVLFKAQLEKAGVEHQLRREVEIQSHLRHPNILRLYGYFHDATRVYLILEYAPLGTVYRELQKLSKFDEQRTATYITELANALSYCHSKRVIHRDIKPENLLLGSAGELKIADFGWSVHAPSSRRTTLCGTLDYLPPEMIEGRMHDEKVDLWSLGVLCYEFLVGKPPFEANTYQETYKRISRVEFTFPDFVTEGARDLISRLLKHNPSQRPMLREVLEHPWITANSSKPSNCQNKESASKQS
SMILES,target,test,test system,setting,IC50
O=C(COC(=O)c1cc(O)c2ccoc2c1)NC(c1ccccc1)c1ccc(Cl)cc1 (centres unmarked),PLA2G4A,"enzyme activity, inhibitor, fluorescence",,,4.43 µM
OC[C@@H]1[C@@H](O)[C@H](O)[C@@H](O)CN1CCCCCOCc1ccc(-c2ccc(F)nc2)cc1,Ugcg,"enzyme activity, inhibitor, fluorescence",,,0.75 µM
Cc1ccc(C(=O)c2oc3ccc(Cl)cc3c2NC(=O)CN2CCN(C)CC2)cc1,RAD52,"ssDNA annealing, fluorescence quenching",,,6 µM
C=CC(=O)Nc1cc(Nc2ncnc(Nc3ccccc3S(N)(=O)=O)n2)c(OC)cc1N(C)CCN(C)C,"EGFR (Homo sapiens, UniProt P00533)","EGFR phosphorylation, inhibitor",A-431,,0.046 µM
CC(C)C[C@H](NC(=O)[C@H](CC(=O)O)NC(=O)[C@H](C)N)C(=O)N1CCC[C@H]1C(=O)N[C@@H](Cc1ccccc1)C(=O)N[C@@H](CCC(=O)O)C(=O)N[C@H](Cc1ccccc1)C(N)=O,"Transcriptional regulator PlcR (Bacillus thuringiensis, UniProt A0ACM8Q0N2)","reporter gene, inhibitor, lacZ reporter",407 Cry−,,1.22 ± 0.07 µM
Fc1ccc(Nc2nc(NC3CCCCC3)c3ccccc3n2)cc1F,"ADRB2 (Homo sapiens, UniProt P07550, T164V)","β-arrestin2 recruitment, antagonist, BRET",HEK293,"mutant T164V, together with: isoprenaline 1 µM",2.51 µM
COc1cc(O)c2c(c1)CCC21CCC(OC(C)=O)CC1 (centres unmarked),"Si (Rattus norvegicus, UniProt P23739)","enzyme activity, inhibitor, absorbance",,,1120 µM
CCN(CC)CC(=O)Nc1cccc(-n2cc(-c3ccc4ccc(-c5cn(-c6cccc(NC(=O)CN(CC)CC)c6)nn5)cc4c3)nn2)c1,"Aurora kinase A (AURKA, Homo sapiens, UniProt O14965)","enzyme activity, inhibitor",,,> 10 µM
OC[C@@H]1[C@@H](O)[C@H](O)[C@@H](O)CN1CCCCCOCc1ccc(-c2ccc(C(F)(F)F)cc2)cc1,Ugcg,"enzyme activity, inhibitor, fluorescence",,,0.025 µM
CSc1ccc(NC(=O)c2cnn(-c3ccc([N+](=O)[O-])cc3)c2C(F)(F)F)cc1,"PTGS2 (Homo sapiens, UniProt P35354)","enzyme activity, inhibitor",,,8.98 µM
Cc1ccc(C(=O)Nc2ccnc(S(N)(=O)=O)c2)c(N2CCCC(F)(F)CC2)n1,"Sodium channel protein type 11 subunit alpha (Homo sapiens, UniProt Q9UI33)","ion current, inhibitor, patch clamp",,,> 33 µM
CCc1ccc(NS(=O)(=O)c2c(C)[nH]c(C)c2C(=O)N2CCCC2)cc1,DRD3,"Go activation, antagonist, BRET",,together with: dopamine,11 ± 0.2 µM
COc1ccccc1Nc1nc(NCCCO)c2ccccc2n1,RAD52,"ssDNA annealing, fluorescence quenching",,,2.9 µM
CC(C)=CCC1C(=C2CC(O)C(C)(C)O2)C(=O)C23C(=C(C)C)OC(C)(C)C2CCC13C (centres unmarked),"Beta-secretase 1 (Mus musculus, UniProt P56818)","enzyme activity in cells, inhibitor",,,0.434 µM
Cc1ccc(NS(=O)(=O)c2c(C)[nH]c(C)c2C(=O)N2CCCCC2)cc1Cl,DRD3,"Go activation, antagonist, BRET",,together with: dopamine,17 ± 0.9 µM
CC1(C)NC(=O)N(c2ccc(F)c(C(C)(F)F)c2)C1=O,AR,"reporter gene, antagonist",LAPC4,"24 h, together with: DHT 10 nM",> 100 µM
OC[C@@H]1[C@@H](O)[C@H](O)[C@@H](O)CN1CCCCCOCc1ccc(-c2ccncc2)cc1,Ugcg,"enzyme activity, inhibitor, fluorescence",,,2 µM
CNCc1ccc2c(c1)N(C(=O)OCc1c(F)c(F)c(F)c(F)c1F)[C@H](CNC(=N)N)[C@H]2NC(=O)C(=O)Nc1ccc(Cl)c(F)c1,"env (Human immunodeficiency virus 1, UniProt Q2N0S5)",HIV-1 infection,Cf2Th-CD4/CCR5 cells,48 h,15.7 µM
CCCCCCCOCCCCCN1C[C@H](O)[C@@H](O)[C@H](O)[C@H]1CO,Ugcg,"enzyme activity, inhibitor, fluorescence",,,0.3 µM
CCn1nc(Cl)c2c1-c1cnc(N)c(c1)O[C@H](C)c1cc(F)ccc1-c1nn(C)cc1C2,"NTRK1 (Homo sapiens, UniProt P04629)","enzyme activity, inhibitor",,together with: 1 mM ATP,0.155 µM
OC[C@@H]1[C@@H](O)[C@H](O)[C@@H](O)CN1CCCCCOCC12CC3CC(C1)CC(COCCCCCN1C[C@H](O)[C@@H](O)[C@H](O)[C@H]1CO)(C3)C2,Ugcg,"enzyme activity, inhibitor, fluorescence",,,20 µM
CCCCN(CC)CCCNC(=S)Nc1ccc2nc(N3CCN(C)CC3)cc(C)c2c1,RAD52,"ssDNA annealing, fluorescence quenching",,,2 µM
COCC1CN(C2CCN(c3cc(OC)c(Nc4ncc(Br)c(Nc5ccc6c(c5P(C)(C)=O)OCCO6)n4)cc3C)CC2)C1,"EGFR (Homo sapiens, UniProt P00533, del746-750)","enzyme activity, inhibitor, TR-FRET",,,0.00068 µM
C[C@@H]1Cc2c([nH]c3ccccc23)[C@@H](c2c(F)cc(/C=C/C(=O)O)cc2F)N1C12CC(C1)C2,AR,agonist,,,> 10 µM
CCCCCCOCCCCCN1C[C@H](O)[C@@H](O)[C@H](O)[C@@H]1CO,Ugcg,"enzyme activity, inhibitor, fluorescence",,,0.1 µM
O[C@H]1[C@H](O)[C@@H](O)c2[nH]cnc2[C@@H]1O,sweet almond β-glucosidase,inhibitor,,"30 min, pH 6.8, together with: p-nitrophenyl β-D-glucopyranoside",> 100 µM
Cn1nc(-c2ccc(Cl)cc2)c2cc(C(=O)NCCCN3CCCCCC3)sc21,RAD52,D-loop formation,,together with: RAD52 450 nM,6.7 ± 0.78 µM
O=C(OCc1ccc(OC(=O)c2ccc([N+](=O)[O-])cc2)cc1)c1ccc([N+](=O)[O-])cc1,APLNR,"β-arrestin recruitment, antagonist",,,> 100 µM
Cc1nn(-c2cccc(N)c2)c(=O)c2cnc(Nc3ccc(N4CCNCC4)cc3)nc12,"ABL1 (Homo sapiens, UniProt P00519, G250E)","enzyme activity, inhibitor",,,0.929 µM
COc1ccc(-c2nc(C(=O)NCCCN3CCOCC3)cc3c2[nH]c2ccccc23)cc1OC,RAD52,"ssDNA annealing, fluorescence quenching",,,4.8 µM
Cc1cc(=O)oc2ccc(OCC(=O)Nc3cc(C(F)(F)F)c4cn[nH]c4c3)cc12,PLA2G4A,"enzyme activity, inhibitor, fluorescence",,,3.18 µM
Cc1cc(NC2CCN(C)CC2)ccc1-c1cc2c(N3CCC[C@H](C(=O)NCc4ccc(OC(F)(F)F)cc4)C3)ncnc2[nH]1,"CHEK2 (Homo sapiens, UniProt O96017)","enzyme activity, inhibitor, ADP detection",,,> 8 µM
Cc1c(Cl)cccc1Nc1ccccc1C(=O)O,"ALDH1B1 (Homo sapiens, UniProt P30837)","enzyme activity, inhibitor",,,64.3 µM
COc1ccc(O)cc1-c1c[nH]c2ncc(-c3cncc(C(=O)N(C)C)c3)cc12,"ABL1 (Homo sapiens, UniProt P00519)","kinase activity, inhibitor, HTRF",,"1 h preincubation, together with: ATP 20 µM",0.0012 ± 0.0001 µM
OC[C@@H]1[C@@H](O)[C@H](O)[C@@H](O)CN1CCCCCOCC1CC1,Ugcg,"enzyme activity, inhibitor",RAW264.7,"in situ, together with: C6-NBD-ceramide",7.2 µM
COc1ccc2c(c1)CN(C(=O)CCN1CCC(Cc3ccccc3)CC1)CCS2,"KCND3 (Homo sapiens, UniProt Q9UK17)","Ito current, inhibitor, whole-cell patch clamp",stable cell line,,11.3 µM
OC[C@@H]1[C@@H](O)[C@H](O)[C@@H](O)CN1CCCCCOCc1ccc(-c2cccc(F)c2)cc1,Ugcg,"enzyme activity, inhibitor, fluorescence",,,0.025 µM
COc1cc(NC(=O)c2ccc([N+](=O)[O-])cc2)ccc1NC(=O)c1ccc([N+](=O)[O-])cc1,APLNR,"β-arrestin recruitment, antagonist",,,9.5 µM
N#C[C@@H]1CC(F)(F)CN1C(=O)CNC(=O)c1ccnc2ccc(OCCCN3CCN(C(=S)Nc4ccc(C[C@H]5CN(Cc6ccccn6)CCN(Cc6ccccn6)CCN(Cc6ccccn6)CCN5Cc5ccccn5)cc4)CC3)cc12,"FAP (Homo sapiens, UniProt Q12884)","enzyme activity, inhibitor, fluorescence",,,0.00229 µM
CC(=O)OC[C@H](COc1ccc(C(C)(C)c2ccc(OC[C@@H](CCl)OC(C)=O)cc2)cc1)OC(C)=O,AR,"antagonist, nuclear translocation",,"primary screen, top 100 µM",> 100 µM
COc1ccc(Nc2cc(NC3CC3)n3ncc(C#N)c3n2)cc1,"CLK2 (Homo sapiens, UniProt P49760)",inhibitor,,,3 µM
